# Experimental data collected from several papers.
# Every numbered part comes from another study and shows a few of its results, in no order. Substitutions count along the parent as printed.

# Block 1 — technique: protein-binding microarray; form: double-stranded DNA, one strand shown; matrix: in vitro; concentration: 2540 nM top; notes: 60-bp whole probe; with: salmon DNA 0.4 mg/ml; baseline: random background probes; direction: higher = stronger binding; all sequences stand within: GCCTAGCAC … GTCTTGATTCGCTTGACGCTGCTG
# Target: Interferon regulatory factor 3, full length, phosphomimetic (IRF3, Homo sapiens, UniProt Q14653, residues 1-427, S386D/S396D/S398D/S402D/T404D/S405D)
# Target sequence (chain): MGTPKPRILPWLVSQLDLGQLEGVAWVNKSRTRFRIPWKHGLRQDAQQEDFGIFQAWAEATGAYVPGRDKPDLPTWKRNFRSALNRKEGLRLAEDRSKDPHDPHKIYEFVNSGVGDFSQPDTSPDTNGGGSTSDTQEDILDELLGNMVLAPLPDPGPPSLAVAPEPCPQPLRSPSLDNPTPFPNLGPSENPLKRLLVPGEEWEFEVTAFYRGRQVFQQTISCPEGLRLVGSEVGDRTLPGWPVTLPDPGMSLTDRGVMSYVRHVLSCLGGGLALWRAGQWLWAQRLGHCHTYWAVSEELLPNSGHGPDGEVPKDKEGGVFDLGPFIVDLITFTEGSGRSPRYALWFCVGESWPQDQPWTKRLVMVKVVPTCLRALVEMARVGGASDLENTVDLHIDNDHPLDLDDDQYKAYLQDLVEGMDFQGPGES
Sequence,fitted relative affinity [z-score]
TTACAGCTATTTTTAGGATGGTGCTAG,-0.00589
TTAGGTATCCTTTTCCTTGAGTGCTAG,7.98
TCATCTTTCCATACTGCACTGTGCTAG,3.26
GACGGACTGGGTATCGGGAGGTGCTAG,-0.452
TTAGCTCTCGGACTGGGTTAGTGCTAG,-0.699
TCATCATTGCCTATTTTTCAGTGCTAG,0.539
TCAGTTCTGCTTTGCCTACTGTGCTAG,1.3
CAGGGAATTCACCTGCTGACGTGCTAG,-0.389
TTAGATTTCGGACTGGATTAGTGCTAG,1.53
GACGGTATCGACTTTCGGCACGTGCTA,1.2
CACGGACTGGACTTTCGGGACGTGCTA,0.201
GACGGTCGCGGTATCGGGACGTGCTAG,0.64
GACGGTATCCTTATACTGACGTGCTAG,4.41
GACCAACTGAGTCTCGAGACGTGCTAG,-0.107

# Block 2 — technique: RNA Bind-n-Seq; form: RNA; matrix: in vitro; concentration: not given; notes: RNA with constant flanks, ends assumed; baseline: input RNA pool; direction: higher = stronger binding
# Target: RING finger protein unkempt homolog, zinc fingers 1-6, GST-SBP tag (UNK, Homo sapiens, UniProt Q9C0B0, residues 30-357)
# All sequences stand within: GGGAGUUCUACAGUCCGACGAUC … CAACAGAGGAUUGAGCAUCA
# Target sequence (chain): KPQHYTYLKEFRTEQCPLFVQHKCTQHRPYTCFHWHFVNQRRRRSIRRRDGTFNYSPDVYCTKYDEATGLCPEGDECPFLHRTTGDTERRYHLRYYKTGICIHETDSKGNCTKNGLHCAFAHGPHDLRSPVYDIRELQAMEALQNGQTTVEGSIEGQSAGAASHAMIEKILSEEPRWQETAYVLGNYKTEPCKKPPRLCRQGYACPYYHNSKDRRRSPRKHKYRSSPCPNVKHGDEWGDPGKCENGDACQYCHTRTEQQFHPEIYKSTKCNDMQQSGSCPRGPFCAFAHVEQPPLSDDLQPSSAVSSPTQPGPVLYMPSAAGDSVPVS
Sequence,bound/input enrichment
GGGACAAUUCAUCUCUUUCGAAAACCACAAAGAUCCUUUUUUGGCAAGUUGUUACGGGAAUUCCGACUUGUAGCAGCUGACCGAAGGUCCUGGAAGAUACUGCUCUUUGGUGUAAUAAAC,0.099 ratio
CAGAUCCAUAGGGAUUUGAAAGCUGGAAAUAUUCUUCUGGGUGAGGAUGGCUCAGUACAAACCGCAGAUUUUGGAGUAAGCGCAUUCUUAGCCACAGGGGGUGAUGUUACACGGAAUAAA,0.232 ratio
CGGGGGGCUUUCUGUGAAGUAAGACCAGAUGAUAAAAGGAUUCUGGAAUUUUACAGCAAGUCCGGCUGUUUUGAAAUUGCAAAAAUGGAAGGAUUUCCAAAGGAUGUGGUUAUACUUGGU,0.128 ratio
GCAUGUUCUUAUGGACACUAUGAAGUUGCAGAACUUCUUGUCAAGCAUGGAGCAGCCGUCAAUGUCGCUGACUUGUGGAAGUUCACACCUUUACAUGAAGCUGCAGCAAAAGGAAAAUAU,0.154 ratio
UUUGAAGUACCUGGUCUUAGCAUCUGGACAGACCUCUUAUUAGCUCUUCGUAGUGGUGCAUUCCGGAAAAGACAAGUUUUGGGUCUCAGCGCAGGCCUCAGUUCUGUAUAGGCAAUGCUG,1.76 ratio
GUUAGCCAAUCAUUGCAGCAUUACUUAGAGCUCGGAAGGCAAGAGCUUUUUAAGAUUCUGCACCGUAUUUUGUUAAAUGGCGAAACCCGUGAGGCUGCUCUCAGUUACAUGGCGGCUGUC,0.489 ratio
UUGACAUUACAGCCAAAAUGGUGCUGUCCCAGAGACAACGAGAUGAACUAAAUCGAGCUACCGCAGAUUAUCUUCGUUCAAAUGGCUAUGAAGAGGCAUAUUCCGUUUUUAAAAAGGAAG,0.188 ratio
ACACCCUGGUUCUGGGCCAGAGAUAAAACCAAUACCUGGUCUGGGCCCAGGGAAGAUCCCAACCGCAGGUCCAGGUUUAGGUCUAAGAAAGAAGUCUAUGUUGAAUCAAGUUCUGGAUCU,0.0934 ratio
UCUACAUCUUCAUCUAUGCAGCCCAGCCCUGUAUCAAAUCAGUCACUUUUAUCAGAAUCUGCCGCAUCUUCUCAAUUGGACAGUACAUCUGUGGACAAAGCAGUACCUGAAACAGAAGAU,0.299 ratio
UACAACAUGGCUUCUGUCGACUUUGAUGGCUUCUUUGCAGCCUUUCUUCCAGAGUUCCUGACCCGCUGUGAUGGUGUGGAUGCCAAUCAGAAAAACGUUCUGGGGCGGAAUUUCAAGAUG,0.163 ratio
AGUAUAUGUAAAUGUCUGUUUUUCAUAAUUGCUCUUUAUAUUGUGUGUUAUCUGACAAGACCGUUAUUUAAGAAACAUGGGAAUUGCAGAAAUGACUGCAGUGCAGCAGUAAUUAUGGUG,0.229 ratio

# Block 3 — technique: RNA Bind-n-Seq; form: RNA; matrix: in vitro; concentration: 1 µM; notes: whole 134-nt RNA, ends assumed; with: 150 mM KCl; baseline: input library; direction: higher = stronger binding
# Target: Ras GTPase-activating protein-binding protein 1, RRM domain (G3BP1, Homo sapiens, UniProt Q13283)
# Sequence of UniProt Q13283 (whole entry, looked up): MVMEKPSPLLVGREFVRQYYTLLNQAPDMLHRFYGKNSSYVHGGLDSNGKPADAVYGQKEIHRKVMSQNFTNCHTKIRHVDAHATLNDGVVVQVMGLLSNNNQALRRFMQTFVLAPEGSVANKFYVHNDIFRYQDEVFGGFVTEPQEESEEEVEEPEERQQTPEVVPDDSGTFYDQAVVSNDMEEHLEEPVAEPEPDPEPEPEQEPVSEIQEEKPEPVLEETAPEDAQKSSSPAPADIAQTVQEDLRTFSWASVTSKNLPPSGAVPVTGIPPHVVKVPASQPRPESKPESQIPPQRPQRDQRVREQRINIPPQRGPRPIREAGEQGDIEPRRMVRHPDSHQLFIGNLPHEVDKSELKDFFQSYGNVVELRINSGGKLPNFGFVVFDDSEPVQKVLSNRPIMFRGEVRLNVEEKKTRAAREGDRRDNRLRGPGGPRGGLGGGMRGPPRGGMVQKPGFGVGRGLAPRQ
# All sequences stand within: GGGAGUUCUACAGUCCGACGAUC … UGGAAUUCUCGGGUGUCAAGG
Sequence,log2 enrichment
GUCCUGUGCUACACAUCGUAUGUACCGAAUCGGGGUUUGGGGUUUUUGGGGAAAGGGGAAAGUAUUAUGUUACGCCGUUCGGAUCUGCAC,1.46
ACCAUGCAGGUGGGCAUCUUUGGGAAGUGGGGCAAGGGGGGGAUAGGGAGGGGGGUAACACUUUGGGAACAGGUGUUCCCAGGUCGUUUC,0.587
UGGCGCUGGUGGCAUGCGGGGAGGAAGAGGUGGCCUCAUGGAUCGUGGUGGUCCCGGUGGAAUGUUCAGAGGUGGCCGUGGUGGAGACAG,0.355
CAAGUCCUGUGCUACACAUCGUAUGUACCGAAUCGGUUUGGUUUUUUUGGUUUGGAAAGUAUUAUGUUACGCCGUUCGGAUCUGCACUUC,-0.336
CUCAAGUCCUGUGCUACACAUCGUAUGUACCGAAUCGGAGGUGGAAAAAAAGGAAAGUAUUAUGUUACGCCGUUCGGAUCUGCACUUCCA,-0.266
UCCUCAAGUCCUGUGCUACACAUCGUAUGUACCGAAUCGGUGGGGUGGUGGAAAGUAUUAUGUUACGCCGUUCGGAUCUGCACUUCCAGC,-0.216
UAAUUGUGAUCUACAUUUUAAAAUAUCAAGAGAUCGUCUCAGUGCUUCUUCCCUUACAAUGGAGAGUUUUGCUUUUCUUUGGGCUGGAGG,-0.362
UCCUGUGCUACACAUCGUAUGUACCGAAUCGGGGAAAAAGGGGUUUGGGGUUUUUGGGGAAAGUAUUAUGUUACGCCGUUCGGAUCUGCA,1.35
AGUCCUGUGCUACACAUCGUAUGUACCGAAUCGGGGUUUUUGGUUUUUGGGUUUUUGGAAAGUAUUAUGUUACGCCGUUCGGAUCUGCAC,-0.198
UAACUUUAGAUGAGGAUCUGAUGGAUAUGGCAGUGGACGUGGAUUUGGGGAUGGCUAUAAUGGGUAUGGAGGAGGACCUGGAGGUGGCAA,-0.928
GCAGGAAGUAAAAAGAAAUGGAAAUGCUUCGGAUAGUGGCAGGGGUGGGGGUUGCUAAGGAAAGGGUGGGAUGGGAGUGGGUAAAGAGUU,1.22
ACCAUGCAGGUGGGCAUCUUUGGGAAGUGGGGCAAGGGGGGGAUAAAAAGGGGGGUAACACUUUGGGAACAGGUGGUCCCAGGUCGUUUC,-0.323
AGUCCUGUGCUACACAUCGUAUGUACCGAAUCGGAAAAAGGUUUUUUUGGAAAAAGGAAAGUAUUAUGUUACGCCGUUCGGAUCUGCACU,-0.376
AGUCCUGUGCUACACAUCGUAUGUACCGAAUCAAAUUUUUAAAUUUUUAAAUUUAAAAAAGUAUUAUGUUACGCCGUUCGGAUCUGCACU,-0.992

# Block 4 — target: CCND3, cyclin fold, Cln2 fusion (human); technique: yeast growth competition, sequencing; matrix: yeast; notes: weak parent motif; baseline: not given; direction: higher = stronger binding
# Starting sequence: BRCA2 docking peptide (human); PSIKRNLLNEFDR; partner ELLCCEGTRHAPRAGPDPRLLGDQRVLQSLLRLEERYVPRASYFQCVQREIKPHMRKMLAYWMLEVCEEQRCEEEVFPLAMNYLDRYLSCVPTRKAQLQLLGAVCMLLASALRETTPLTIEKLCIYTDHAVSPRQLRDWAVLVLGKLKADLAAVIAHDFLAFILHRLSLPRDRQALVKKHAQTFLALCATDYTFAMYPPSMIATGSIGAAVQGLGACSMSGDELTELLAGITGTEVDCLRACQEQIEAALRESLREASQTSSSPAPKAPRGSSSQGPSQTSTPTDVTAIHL
Substitution,normalised enrichment score
PSIKRSLLNEFDR [N6S],0.129
PSIKRNLLNSFDR [E10S],0.104
SSIKRNLLNEFDR [P1S],0.104
PSIKRNLDNEFDR [L8D],0.0453
PSIDRNLLNEFDR [K4D],0.0812
PSIKRNLLKEFDR [N9K],0.242
PSIKRDLLNEFDR [N6D],0.0673
PSIKRNLLNEFDF [R13F],0.0936
PSIKRNLQNEFDR [L8Q],0.0362
PSIKRNDLNEFDR [L7D],0.0498
PSIKRLLLNEFDR [N6L],0.103
PSIKRNLINEFDR [L8I],0.167
PSIKRNLLNEFDQ [R13Q],0.147
PLIKRNLLNEFDR [S2L],0.203
PSIKYNLLNEFDR [R5Y],0.0403
PSIKRNLCNEFDR [L8C],0.088
PSIKRNLLNEFKR [D12K],0.178
ASIKRNLLNEFDR [P1A],0.0946
PSMKRNLLNEFDR [I3M],0.00451
PSIKRNLLDEFDR [N9D],0.173
PSRKRNLLNEFDR [I3R],0.113

# Block 5 — technique: DHFR PCA, deep sequencing; matrix: yeast; with: (+)-ABA 58 µM; baseline: wild-type fitted maximum; direction: higher = stronger binding
# Target: ABI1, truncated, D143A, DHFR fusion (Arabidopsis thaliana)
# Notes: methotrexate growth selection, single substitutions
# Starting sequence: PYL1, truncated, DHFR fusion (Arabidopsis thaliana); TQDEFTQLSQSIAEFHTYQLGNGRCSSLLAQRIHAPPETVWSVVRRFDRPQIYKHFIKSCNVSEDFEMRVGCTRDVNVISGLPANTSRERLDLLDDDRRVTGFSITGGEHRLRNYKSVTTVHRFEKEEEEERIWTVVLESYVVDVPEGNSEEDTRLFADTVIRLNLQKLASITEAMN; partner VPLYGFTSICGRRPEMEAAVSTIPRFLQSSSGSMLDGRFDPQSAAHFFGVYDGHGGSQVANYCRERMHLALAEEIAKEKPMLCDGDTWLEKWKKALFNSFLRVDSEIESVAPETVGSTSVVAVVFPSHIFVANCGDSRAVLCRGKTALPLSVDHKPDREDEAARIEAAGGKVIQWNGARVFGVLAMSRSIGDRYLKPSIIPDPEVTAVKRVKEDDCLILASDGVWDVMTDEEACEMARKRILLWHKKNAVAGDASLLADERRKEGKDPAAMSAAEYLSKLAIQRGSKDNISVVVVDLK
Substitution,relative binding score [%]
E130H,99.8
R155P,5.55
I105Y,-6.16
V62Y,54
G21A,89.2
T120E,5.3
L91Y,-1.51
V40K,-9.86
T86K,70.4
F103Q,-6.8
D75E,86.7
G21I,87.4
R90N,37.7
G108H,0.477
A35G,48.6
Y141C,16.6

# A few entries again (block 4):
Substitution,normalised enrichment score
PSIKRNLDNEFDR [L8D],0.0453
PSIDRNLLNEFDR [K4D],0.0812
PSIKRNLLKEFDR [N9K],0.242
PSIKRDLLNEFDR [N6D],0.0673
PSIKRNLLNEFDF [R13F],0.0936
PSIKRNLQNEFDR [L8Q],0.0362
PSIKRNDLNEFDR [L7D],0.0498
PSIKRLLLNEFDR [N6L],0.103
PSIKRNLINEFDR [L8I],0.167
PSIKRNLLNEFDQ [R13Q],0.147
PLIKRNLLNEFDR [S2L],0.203
